Measurements of several laboratories.
Each line is one published result; not all experiments were run side by side. “And” joins repeats or separate records; there may be more than shown. ± gives the spread as reported. In brackets after ≈: the same amount, converted by molar mass.
HDAC6 ZnF-UBD domain: Protein deacetylase HDAC6, ZnF-UBD domain (HDAC6, Homo sapiens, UniProt Q9UBN7)
UniProt O15305, sequence (whole entry, looked up): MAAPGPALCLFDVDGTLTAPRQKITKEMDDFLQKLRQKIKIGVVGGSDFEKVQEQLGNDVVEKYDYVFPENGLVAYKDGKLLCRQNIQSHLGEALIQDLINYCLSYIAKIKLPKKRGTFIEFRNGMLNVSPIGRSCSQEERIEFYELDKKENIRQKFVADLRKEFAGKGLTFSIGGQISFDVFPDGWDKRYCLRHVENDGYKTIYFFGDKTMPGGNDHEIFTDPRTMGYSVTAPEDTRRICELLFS
UniProt Q9UBN7, sequence (whole entry, looked up): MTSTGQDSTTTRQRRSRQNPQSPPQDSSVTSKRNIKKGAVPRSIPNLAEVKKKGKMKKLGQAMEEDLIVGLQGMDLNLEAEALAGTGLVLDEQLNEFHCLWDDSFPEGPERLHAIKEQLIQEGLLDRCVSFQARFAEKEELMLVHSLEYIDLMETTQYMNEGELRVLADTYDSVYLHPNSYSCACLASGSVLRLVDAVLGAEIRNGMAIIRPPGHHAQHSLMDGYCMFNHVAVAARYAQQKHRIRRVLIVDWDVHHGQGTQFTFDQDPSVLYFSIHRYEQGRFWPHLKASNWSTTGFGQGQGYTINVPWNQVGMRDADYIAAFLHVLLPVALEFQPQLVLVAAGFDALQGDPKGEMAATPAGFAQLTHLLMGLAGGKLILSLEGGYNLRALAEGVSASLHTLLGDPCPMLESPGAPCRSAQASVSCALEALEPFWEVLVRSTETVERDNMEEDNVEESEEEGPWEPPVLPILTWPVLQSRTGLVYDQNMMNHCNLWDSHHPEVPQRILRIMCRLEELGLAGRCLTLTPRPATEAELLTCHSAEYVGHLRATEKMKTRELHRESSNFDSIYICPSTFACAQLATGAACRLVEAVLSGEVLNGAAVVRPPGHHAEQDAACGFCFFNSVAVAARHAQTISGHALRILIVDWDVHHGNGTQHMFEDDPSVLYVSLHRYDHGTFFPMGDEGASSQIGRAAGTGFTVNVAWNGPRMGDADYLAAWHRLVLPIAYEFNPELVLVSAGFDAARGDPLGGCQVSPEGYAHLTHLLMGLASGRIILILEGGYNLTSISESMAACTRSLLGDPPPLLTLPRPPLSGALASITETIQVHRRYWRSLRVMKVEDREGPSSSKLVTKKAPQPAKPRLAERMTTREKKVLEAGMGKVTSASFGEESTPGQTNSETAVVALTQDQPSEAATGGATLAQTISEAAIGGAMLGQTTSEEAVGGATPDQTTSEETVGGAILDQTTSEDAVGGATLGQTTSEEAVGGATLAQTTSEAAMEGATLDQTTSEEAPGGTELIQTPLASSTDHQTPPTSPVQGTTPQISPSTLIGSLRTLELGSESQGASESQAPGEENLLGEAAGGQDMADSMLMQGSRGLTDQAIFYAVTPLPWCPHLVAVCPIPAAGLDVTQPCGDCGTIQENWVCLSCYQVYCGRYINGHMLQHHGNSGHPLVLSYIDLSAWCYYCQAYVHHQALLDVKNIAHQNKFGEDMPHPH
UniProt P50613, sequence (whole entry, looked up): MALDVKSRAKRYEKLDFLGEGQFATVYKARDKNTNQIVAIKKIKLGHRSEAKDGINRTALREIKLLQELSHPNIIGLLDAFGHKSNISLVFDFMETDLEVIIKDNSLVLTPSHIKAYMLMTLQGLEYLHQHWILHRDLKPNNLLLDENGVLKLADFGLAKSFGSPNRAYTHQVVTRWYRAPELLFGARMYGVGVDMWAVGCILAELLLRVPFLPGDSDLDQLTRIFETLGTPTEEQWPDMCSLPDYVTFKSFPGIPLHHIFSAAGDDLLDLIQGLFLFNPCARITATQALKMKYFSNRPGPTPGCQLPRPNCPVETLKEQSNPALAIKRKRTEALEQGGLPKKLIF

Compound	target or system	assay	test system	conditions	scale	endpoint	result
CC(C)[C@@H]1NC(=O)[C@@H](CCN)NC(=O)[C@H]([C@@H](C)O)NC(=O)[C@@H](CCCN)NC(=O)[C@H](Cc2ccccc2)NC(=O)[C@@H](Cc2ccccc2)NC1=O	Naegleria fowleri	–	–	trophozoites	–	IC90	> 16 µg/mL
CO/N=C(\C(=O)N[C@@H]1C(=O)N2C(C(=O)O)=C(CSc3nc(=O)c(O)nn3C)CS[C@H]12)c1csc(N)n1	Neisseria gonorrhoeae	broth microdilution	WHO G	1.5 h	–	MIC	1 µg/mL (≈ 1.8 µM)
CC(C)n1ncc2c(C(=O)NCC3(C)CNC3)cc(C3CC3)nc21	Enterovirus D68	–	US/IL/14-18952, neonatal Swiss Webster mice	intraperitoneal, 50 mg/kg daily, day 0 post infection, immediate treatment	–	body weight	2.04 g and 1.9 g and 2.1 g and 2.02 g and 2.01 g
CCCCCOc1ccc(-c2ccc(-c3ccc(C(=O)N[C@H]4C[C@@H](O)[C@@H](OCC[N+](C)(C)C)NC(=O)[C@@H]5[C@@H](O)[C@@H](C)CN5C(=O)[C@H]([C@@H](C)O)NC(=O)[C@H]([C@H](O)[C@@H](O)c5ccc(O)cc5)NC(=O)[C@@H]5C[C@@H](O)CN5C(=O)[C@H]([C@@H](C)O)NC4=O)cc3)cc2)cc1	Candida glabrata	–	10956, neutropenic mouse, disseminated candidiasis	dose not given, average 24 h AUC over 7 days	–	total AUC/MIC for 1 log kill	301
N=C(N)c1ccc(OCc2ccc(Br)cc2COc2ccc(C(=N)N)cc2)cc1	Escherichia coli	–	ATCC 25922	concentration not given, together with: rifampicin	–	MIC in combination	6.25 µg/mL
Cc1cc(OC(C)C)ccc1C(=O)C(C)(C)NC(=O)c1sccc1C	Botrytis cinerea	conidial germination	B05.10	72 h, 20 °C	–	EC50	0.4 µg/mL (≈ 1.11 µM)
N=C(N)c1ccc(OCCC(CCOc2ccc(C(=N)N)cc2)c2ccccc2)cc1 (centres unmarked)	Escherichia coli	checkerboard	ATCC 25922	unit not given, together with: rifampicin	lower = stronger synergy	FICI	≤ 0.047
CC1=NN(c2ccc(C)cc2)C(=O)C1=NNc1ccc(S(N)(=O)=O)cc1	Saccharomyces cerevisiae	–	–	200 µg/mL	–	glucose uptake	63.7%
CC[C@H]1OC(=O)[C@H](C)[C@@H](O[C@H]2C[C@@](C)(OC)[C@@H](O)[C@H](C)O2)[C@H](C)[C@@H](O[C@@H]2O[C@H](C)C[C@H](N(C)C)[C@H]2O)[C@](C)(O)C[C@@H](C)CN(C)[C@H](C)[C@@H](O)[C@]1(C)O	Neisseria gonorrhoeae	broth microdilution	WHO N	1.5 h	–	MIC	0.25 µg/mL (≈ 0.334 µM)
CC1=NOC(=O)C1=NNc1ccc(S(N)(=O)=O)cc1	Saccharomyces cerevisiae	–	–	100 µg/mL	–	glucose uptake	23.2%
CC1(C)S[C@@H]2[C@H](NC(=O)Cc3ccccc3)C(=O)N2[C@H]1C(=O)O	Neisseria gonorrhoeae	broth microdilution	WHO M	1.5 h	–	MIC	16 µg/mL (≈ 47.8 µM)
O=C(COP(=O)(O)O)[C@@H](O)[C@H](O)[C@H](O)COP(=O)(O)O	PMM2 (Homo sapiens, UniProt O15305)	–	–	0.1 mM, unit not given	baseline: activity at 0 mM set to 100	enzyme activity	95.1 and 90 and 92.7
CC1=NN(c2ccc(F)cc2)C(=O)C1=NNc1ccc(S(N)(=O)=O)cc1	Saccharomyces cerevisiae	–	–	100 µg/mL	–	glucose uptake	44.2%
CC(C)C[C@H](NC(=O)C[C@H](O)[C@H](CC(C)C)NC(=O)[C@H](Cc1c[nH]cn1)NC(=O)CNC(=O)[C@@H](NC(=O)[C@H](C)NC(=O)[C@H](Cc1c[nH]c2ccccc12)NC(=O)[C@H](CCC(N)=O)NC(=O)[C@@H](Cc1ccccc1)NC(=O)COCCOCCNC(=O)CN1CCN(CC(=O)O)CCN(CC(=O)O)CCN(CC(=O)O)CC1)C(C)C)C(N)=O [lutetium-177 labelled]	–	–	female BALB/c nu/nu mice, tumor	intravenous, 50 pmol, 1 h	–	tissue uptake	10 ± 2 %ID/g
O=C(O)CCn1sc2ccccc2c1=O	HDAC6 ZnF-UBD domain	–	–	–	–	Kd	> 1000 µM
CC[C@@H]1[C@H](F)C(=O)N[C@@H]1COc1nccc2cc(C(N)=O)c(OC)cc12	CDK7 (Homo sapiens, UniProt P50613)	ATP-site probe binding, ActivX profiling	THP-1 cell lysate	0.2 mM, Lys1 site	–	inhibition	-1.1%
Cc1cc(Nc2ccc(S(F)(F)(F)(F)F)cc2)n2nc(C(C)(F)F)nc2n1	Plasmodium falciparum	–	human	–	–	time to parasitaemia nadir, upper bound	664 h
CC(C)C[C@H](NC(=O)C[C@H](O)[C@H](CC(C)C)NC(=O)[C@H](Cc1c[nH]cn1)NC(=O)CNC(=O)[C@@H](NC(=O)[C@H](C)NC(=O)[C@H](Cc1c[nH]c2ccccc12)NC(=O)[C@H](CCC(N)=O)NC(=O)[C@@H](Cc1ccccc1)NC(=O)COCCOCCNC(=O)CCC(C(=O)O)N1CCN(CC(=O)O)CCN(CC(=O)O)CCN(CC(=O)O)CC1)C(C)C)C(N)=O (some centres unmarked) [lutetium-177 labelled]	–	–	BALB/c nu/nu mice, female, pancreas	50 pmol, 1 h, together with: PA 300 µg	–	tissue uptake	12 ± 2 %ID/g
CC[C@H]1OC(=O)[C@H](C)[C@@H](O[C@H]2C[C@@](C)(OC)[C@@H](O)[C@H](C)O2)[C@H](C)[C@@H](O[C@@H]2O[C@H](C)C[C@H](N(C)C)[C@H]2O)[C@](C)(O)C[C@@H](C)/C(=N\OCOCCOC)[C@H](C)[C@@H](O)[C@]1(C)O	Streptococcus pyogenes	–	40 clinical isolates	–	–	MIC50	0.25 µg/mL (≈ 0.299 µM)
CCc1c2c(nc3ccc(OC(=O)N4CCC(N5CCCCC5)CC4)cc13)-c1cc3c(c(=O)n1C2)COC(=O)[C@]3(O)CC	Taenia solium	trypan blue staining	–	IC50, 24 h	–	killed cysts	20%
CC1=NCCNC(=O)C1=NNc1ccc(S(N)(=O)=O)cc1	Saccharomyces cerevisiae	–	–	500 µg/mL	–	glucose uptake	39.6%
CN[C@H](CC(C)C)C(=O)N[C@H]1C(=O)N[C@@H](CC(N)=O)C(=O)N[C@H]2C(=O)N[C@H]3C(=O)N[C@H](C(=O)N[C@H](C(=O)O)c4cc(O)cc(O)c4-c4cc3ccc4O)[C@H](O)c3ccc(c(Cl)c3)Oc3cc2cc(c3O[C@@H]2O[C@H](CO)[C@@H](O)[C@H](O)[C@H]2O[C@H]2C[C@](C)(N)[C@H](O)[C@H](C)O2)Oc2ccc(cc2Cl)[C@H]1O	Staphylococcus aureus	–	USA300 LAC, female ICR mice, peritonitis, peritoneal fluid	–	–	bacterial load	4.5 log CFU and 5.31 log CFU and 4.85 log CFU and 3.88 log CFU and 4.75 log CFU and 3.22 log CFU

Compound	target or system	assay	test system	conditions	scale	endpoint	result
c1cnc2c(c1)ccc1cccnc12	Taenia solium	trypan blue uptake	viable cysts in vitro	50 µg/mL	–	cysticidal efficacy	100%
Nc1nc(-c2ccccc2)nc2[nH]nc(Nc3ccc(C(F)(F)F)cc3)c12	coxsackievirus B3	–	31-1-93, NMRI mice, CVB3 chronic myocarditis	oral, 100 mg/kg twice daily, day 28, dosed days 0 to 6, score scale 0 to 7	direction not given	clinical score	0
CN[C@H](CC(C)C)C(=O)N[C@H]1C(=O)N[C@@H](CC(N)=O)C(=O)N[C@H]2C(=O)N[C@H]3C(=O)N[C@H](C(=O)N[C@H](C(=O)O)c4cc(O)cc(O)c4-c4cc3ccc4O)[C@H](O)c3ccc(c(Cl)c3)Oc3cc2cc(c3O[C@@H]2O[C@H](CO)[C@@H](O)[C@H](O)[C@H]2O[C@H]2C[C@](C)(N)[C@H](O)[C@H](C)O2)Oc2ccc(cc2Cl)[C@H]1O	Streptococcus pyogenes	–	10 isolates	serum 0%	–	MIC50	0.5 µg/mL (≈ 0.345 µM)
O=C1C(NCCc2ccc(O)cc2)=CC2=NCCc3c[nH]c1c32	Saccharomyces cerevisiae	cell growth, liquid culture	BY4741	100 µM, 24 h	–	inhibition	62.5%
O=C(N1CCc2ccccc21)n1ccnn1	Oryza sativa	–	–	concentration not given	–	plant height	20.1 cm
Cn1cc(-c2ccc(-c3cncc(Cl)c3N3CCC4(CCNC4=O)CC3)cc2)cn1	COLO 205	gene expression, microarray, measured: ABCC3 mRNA	–	concentration not given, 2 h	baseline: untreated cells	log2 fold change	4.64
CC1=NN(c2cccc([N+](=O)[O-])c2)C(=O)C1=NNc1ccc(S(N)(=O)=O)cc1	Saccharomyces cerevisiae	–	–	200 µg/mL	–	glucose uptake	29%
CC1(C)S[C@@H]2[C@H](NC(=O)[C@H](N)c3ccccc3)C(=O)N2[C@H]1C(=O)O	Streptococcus viridans	–	10 clinical isolates	–	–	MIC50	0.25 µg/mL (≈ 0.715 µM)
CC1=NN(c2cc(Cl)ccc2Cl)C(=O)C1=NNc1ccc(S(N)(=O)=O)cc1	Saccharomyces cerevisiae	–	–	100 µg/mL	–	glucose uptake	53.1%
CC(=O)O	Saccharomyces cerevisiae	cell growth	–	22 h, pH 4.3	–	IC50	13000 µM
Cc1ccc(NC(=O)N2Cc3[nH]cnc3C[C@H]2c2nc(-c3ccc4c(c3)OCO4)no2)cc1	Caenorhabditis elegans	–	N2	6.25 µM	–	mean lifespan	21.2 days
C=CC(=O)ON=C1C=CC(=C(C#N)c2ccccc2)C=C1	Candidozyma auris	–	ATCC MYA-5001	concentration not given	–	antifungal activity	active
N=C(N)c1ccc(OCc2cc(COc3ccc(C(=N)N)cc3)cc(-c3ccccc3)c2)cc1	Escherichia coli	checkerboard	mcr-3 polymyxin-resistant	concentration not given, together with: rifampicin	–	MIC of compound in combination	3.13 µg/mL
CC1=NN(c2ccc(Cl)cc2)C(=O)C1=NNc1ccc(S(N)(=O)=O)cc1	Saccharomyces cerevisiae	–	–	200 µg/mL	–	glucose uptake	30.5%
CC(C)[C@@H]1NC(=O)[C@@H](CCCN)NC(=O)[C@H]([C@@H](C)O)NC(=O)[C@@H](CCCN)NC(=O)[C@H](Cc2ccccc2)NC(=O)[C@@H](Cc2ccccc2)NC1=O	Naegleria fowleri	–	–	trophozoites	–	IC50	> 16 µg/mL
O=C(O)CCn1nnc(-c2ccccc2)n1	HDAC6 ZnF-UBD domain	–	–	–	–	Kd	232 µM
CC(=O)NC[C@H]1CN(c2ccc(N3CCOCC3)c(F)c2)C(=O)O1	Streptococcus pyogenes	broth microdilution	–	–	–	MIC50	0.5 µg/mL (≈ 1.48 µM)
COC(=O)[C@H](Cc1ccc(O)cc1)NCc1cc2ccccc2nc1SC	Pseudomonas aeruginosa	–	–	64 µg/mL, together with: pentamidine 50 µM	baseline: control	growth	83.4%
NC(=O)c1cnc2[nH]ccc2c1N[C@@H]1[C@@H]2CC3C[C@H]1C[C@@](O)(C3)C2	–	CD4+ effector T cells, flow cytometry	Caucasian humans, peripheral blood	200 mg single dose	baseline: baseline	percent change	0.05%
CC1=NNC(=O)C1=NNc1ccc(S(N)(=O)=O)cc1	Saccharomyces cerevisiae	–	–	10 µg/mL	–	glucose uptake	27.92 ± 0.00138%
C#CCON=C1C=CC(=C(C#N)c2ccccc2)C=C1	Candidozyma auris	–	ATCC MYA-5001	concentration not given	–	antifungal activity	active
CC(=O)N1CCC(C(=O)N2CCN3C(=O)c4cc(-c5ccccc5)ccc4NC(=O)C3C2)CC1 (centres unmarked)	Caenorhabditis elegans	–	N2	1.56 µM	–	median lifespan	21 days
